Experimental data from different studies.
A part holds a random share of what one study measured. Substitutions count along the parent as printed.

Block 1
Target: CCNB2, cyclin fold, Cln2 fusion (human)
Technique: yeast growth competition, sequencing
Sample: yeast
Notes: weak parent motif
Reference: not given
Reading: higher = stronger binding
Endpoint: normalised enrichment score
Parent: viral docking peptide; PGASRRLFGSSAD; partner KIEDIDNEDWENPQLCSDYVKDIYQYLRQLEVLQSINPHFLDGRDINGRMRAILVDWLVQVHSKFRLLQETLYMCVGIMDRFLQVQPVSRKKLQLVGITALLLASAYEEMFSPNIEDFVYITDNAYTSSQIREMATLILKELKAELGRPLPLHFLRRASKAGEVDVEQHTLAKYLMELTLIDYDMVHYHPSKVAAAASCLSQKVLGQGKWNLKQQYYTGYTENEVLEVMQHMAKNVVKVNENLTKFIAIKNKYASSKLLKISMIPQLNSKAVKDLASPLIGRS
Variant = PGASRALFGSSAD [R6A]; value = -0.274
Variant = AGASRRLFGSSAD [P1A]; value = -0.223
Variant = PGASRRLFGSAAD [S11A]; value = 0.864
Variant = PGASRRLFASSAD [G9A]; value = 0.582
Variant = PGASRRLFGASAD [S10A]; value = -0.0325
Variant = PGASRRAFGSSAD [L7A]; value = -0.118
Variant = PGASRRLLGSSAD [F8L]; value = 0.648
Variant = PGASKRLLGSSAD [R5K F8L]; value = 0.0713

Block 2
SMILES: N#CC1(c2ccccn2)CCN(Cc2cc(C(=O)O)c(=O)n3ccccc23)CC1
Read-out: cell-free assay
Technique: competition with immobilised ligand
Tested at: 1 µM
Endpoint: remaining binding
target = Aurora kinase A (AURKA, Homo sapiens, UniProt O14965); value = 100%
target = Receptor-type tyrosine-protein kinase FLT3 (FLT3, Homo sapiens, UniProt P36888, D835H); value = 100%
target = SRSF protein kinase 3 (SRPK3, Homo sapiens, UniProt Q9UPE1); value = 95%
target = Epidermal growth factor receptor (EGFR, Homo sapiens, UniProt P00533, del752-759); value = 96%
target = Mitogen-activated protein kinase 12 (MAPK12, Homo sapiens, UniProt P53778); value = 78%
target = Citron Rho-interacting kinase (CIT, Homo sapiens, UniProt O14578); value = 98%
target = Cyclin-dependent kinase-like 2 (CDKL2, Homo sapiens, UniProt Q92772); value = 100%
target = SRSF protein kinase 1 (SRPK1, Homo sapiens, UniProt Q96SB4); value = 100%
target = Mast/stem cell growth factor receptor Kit, autoinhibited (KIT, Homo sapiens, UniProt P10721); value = 87%
target = Receptor-type tyrosine-protein kinase FLT3 (FLT3, Homo sapiens, UniProt P36888, D835V/ITD); value = 94%
target = Death-associated protein kinase 3 (DAPK3, Homo sapiens, UniProt O43293); value = 95%
target = Cyclin-dependent kinase 4, with cyclin D1 (CDK4, Homo sapiens, UniProt P11802); value = 100%
target = Homeodomain-interacting protein kinase 4 (HIPK4, Homo sapiens, UniProt Q8NE63); value = 95%
target = Tyrosine-protein kinase ABL1, non-phosphorylated (ABL1, Homo sapiens, UniProt P00519, F317L); value = 57%
target = Tyrosine-protein kinase ABL1, phosphorylated (ABL1, Homo sapiens, UniProt P00519, Y253F); value = 72%

Block 3
Target: HLA class I histocompatibility antigen, A alpha chain, allele A*25:01 (Homo sapiens, UniProt P04439)
Read-out: peptide-MHC binding
Molecule type: peptide
Tested at: concentration not given
Endpoint: binding
Sequence = RTFGQPLFF; value = inactive
Sequence = SLMSRVVYK; value = inactive
Sequence = FQAGWEDPT; value = inactive
Sequence = RVLTARKTV; value = inactive
Sequence = AVGFFPTGV; value = inactive
Sequence = DGAEGINPY; value = inactive
Sequence = GLFWGGIWY; value = inactive
Sequence = AKIALAVYK; value = inactive

Single results of other studies
Cell line: HEK-293T/ACE2
Tested at: 10 µM
Time: 16 h
Reference: vehicle
SMILES = CCC1(C)CC(=O)NC1=O (stereo not drawn); viability = 97.3%
SMILES = N=C(N)NC(=O)Cc1c(Cl)cccc1Cl; viability = 96.9%

A few entries again (block 2):
target = Mast/stem cell growth factor receptor Kit, autoinhibited (KIT, Homo sapiens, UniProt P10721); value = 87%
target = Receptor-type tyrosine-protein kinase FLT3 (FLT3, Homo sapiens, UniProt P36888, D835V/ITD); value = 94%
target = Death-associated protein kinase 3 (DAPK3, Homo sapiens, UniProt O43293); value = 95%
target = Cyclin-dependent kinase 4, with cyclin D1 (CDK4, Homo sapiens, UniProt P11802); value = 100%
